Measurements of several laboratories.
Parts stem from different laboratories: compare values within a part only.

Study 1 — technique: universal PBM; molecule type: double-stranded DNA, one strand shown; medium: in vitro; tested at: 600 nM; direction: higher = stronger binding
Target: Sal-like protein 4, full length isoform A (SALL4, Homo sapiens, UniProt Q9UJQ4, residues 1-1053)
UniProt Q9UJQ4, sequence (whole entry, looked up): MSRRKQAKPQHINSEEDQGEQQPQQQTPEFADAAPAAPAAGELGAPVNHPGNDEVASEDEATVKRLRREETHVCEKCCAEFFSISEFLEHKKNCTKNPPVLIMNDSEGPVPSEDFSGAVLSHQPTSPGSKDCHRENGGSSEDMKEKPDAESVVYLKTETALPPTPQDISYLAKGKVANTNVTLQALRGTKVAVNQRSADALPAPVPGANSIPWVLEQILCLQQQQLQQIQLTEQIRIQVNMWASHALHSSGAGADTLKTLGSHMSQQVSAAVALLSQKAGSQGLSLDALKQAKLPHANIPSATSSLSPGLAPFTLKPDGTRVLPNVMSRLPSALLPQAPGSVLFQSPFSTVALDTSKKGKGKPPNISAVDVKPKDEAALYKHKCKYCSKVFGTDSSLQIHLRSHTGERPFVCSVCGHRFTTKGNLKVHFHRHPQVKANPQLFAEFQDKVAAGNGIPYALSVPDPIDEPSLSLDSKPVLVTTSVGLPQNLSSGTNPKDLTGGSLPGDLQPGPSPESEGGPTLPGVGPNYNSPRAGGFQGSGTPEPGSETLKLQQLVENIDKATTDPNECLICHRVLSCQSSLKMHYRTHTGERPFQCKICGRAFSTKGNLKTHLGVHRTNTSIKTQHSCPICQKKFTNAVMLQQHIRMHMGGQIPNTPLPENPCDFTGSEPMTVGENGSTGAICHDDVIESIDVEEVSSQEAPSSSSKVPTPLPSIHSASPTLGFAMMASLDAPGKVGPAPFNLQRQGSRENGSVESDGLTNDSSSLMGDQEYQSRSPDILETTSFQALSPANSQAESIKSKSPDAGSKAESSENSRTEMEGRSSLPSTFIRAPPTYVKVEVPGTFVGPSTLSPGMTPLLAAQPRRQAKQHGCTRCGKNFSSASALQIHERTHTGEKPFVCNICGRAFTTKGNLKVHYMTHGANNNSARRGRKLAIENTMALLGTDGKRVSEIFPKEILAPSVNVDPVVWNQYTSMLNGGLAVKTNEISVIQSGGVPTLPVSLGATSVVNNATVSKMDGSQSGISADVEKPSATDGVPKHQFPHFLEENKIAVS
Setting: 8-mer, flanks averaged, mean of replicates
Oligonucleotide | E-score
AGTCGCAA | 0.0417
AAGCCGCA | -0.1
ACAGTATC | 0.147
ATAGGTGG | 0.127
CCTCGCGA | -0.248
AGTCGAAT | 0.00507
ATGAGAAT | 0.187
CATCTACA | 0.174
CGTTCTTC | 0.0308
ACACCTAC | 0.0122
AAGAAGAA | 0.134
ATGCACAC | 0.0155
CATAAACC | 0.162
CGCGGAAG | -0.165
AATTGACT | 0.107
ACTAGACT | -0.0873
GTATCAAA | 0.232
CATGTCGG | -0.144
ATTAAAAC | 0.327
TGCAGGCA | -0.0216
ACCTGGTA | -0.174
TCGCTCCA | -0.00691
CCCAGACA | -0.209
ACTCTGAG | -0.0843
CAGTCCGG | -0.336

Study 2 — technique: RNA Bind-n-Seq; molecule type: RNA; medium: in vitro; tested at: 100 nM; reference: input RNA pool; direction: higher = stronger binding
Target: RING finger protein unkempt homolog, zinc fingers 1-6, SBP tag (UNK, Homo sapiens, UniProt Q9C0B0, residues 30-357)
UniProt Q9C0B0, sequence (30-357, looked up): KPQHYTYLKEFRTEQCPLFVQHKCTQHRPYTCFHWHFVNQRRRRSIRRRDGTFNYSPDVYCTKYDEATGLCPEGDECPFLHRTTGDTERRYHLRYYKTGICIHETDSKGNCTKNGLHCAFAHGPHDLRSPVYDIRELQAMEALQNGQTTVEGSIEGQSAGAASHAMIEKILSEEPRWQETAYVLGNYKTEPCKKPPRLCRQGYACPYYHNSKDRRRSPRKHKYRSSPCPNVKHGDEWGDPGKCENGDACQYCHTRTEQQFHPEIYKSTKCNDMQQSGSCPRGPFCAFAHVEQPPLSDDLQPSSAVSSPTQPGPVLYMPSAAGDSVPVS
Setting: RNA with constant flanks, vertebrate orthologous sites, ends assumed
All sequences stand within: GGGAGUUCUACAGUCCGACGAUC … CAACAGAGGAUUGAGCAUCA
Oligonucleotide | bound/input enrichment [ratio]
CUAGUCUUCCACUUAGGGUUGGCCUCAAAUCUAUAGGACUUAUGACAAAUGUAUAUCUGCUUAGGUUGAGUUUAAUAUUUUUUUAUUAACCUGUAAAUAAAGAUUGCAUCUUCUACAUUA | 0.496
ACACUUACAUUGUGGCAAAUAGUCAACAUGGAAGUAGACCGGCUCUGCUGAUUUGAAAUUUAGAUUUUUUUAAUUAUGUACUGGGGACAGGUUUUUGUCGCUUUACAUUGCUUCCUAGUU | 4.52
AGUAGUUUUAAGCUUGUUUGCACAGUUCUUUUUUUCCAUUGGAAAUGGAAUCCAUUGCCUUAGGUCUUUUUAAAUAGUGUAUUAUUAUCGUUGGGGCUGGCUCUAUGCUUGAAAACCAGU | 3.31
GUGACUUUGGGCGUCCGCAUAGUCUUGGUGCACCCUUAGUCCAGGUCUUGUCCCGCAGGUUUAUUUUUCUUUCCCUGUAGACUAAAGGCCGCUGCCGCAAACAUGCUUCGCCAGAUCCUC | 0.269
AGGGACGCUUUGAUGUAAAAAUUGAAGUUAAGAGCUGAUCGCAAGCACAAAUCUUUCUCACUAGCCAUUUAAAAAGUUAAAAAAGAUACAAAAACAAAAACCUACUAGUCUUGAAUAAAC | 0.798
CUACCGCGUACCUGCUGUAUAAUAAACAACAAGACACUUGUCAGCUGUUGAUACAGGUGUUAGUCCCAAACCACUUUUUAUAUGUUUUAAAUUUUGAAAUUCAAGUGUAUCUGCCAUAAC | 1.29
UGUGUCUCUUGGUUUGGGGUAGAGGGGAGGGAGGGGUAGGACUGGAAUCUCUAGGGUGUAUGGGUAGAUAGGGUGCACAGUUAGUUCUGUGUGGGGGCCUUUAUGUAAAAAAAACUCUGA | 0.552
UGUCUGCCUCAUUCUAAAAUUUACACAGUAGACCAUUUGUCAUCCAUGCUGUCCCACAAAUAGUUUUUUGUUUACGAUUUAUGACAGGUUUAUGUUACUUCUAUUUGAAUUUCUAUAUCU | 0.901
UAUCUUUAGGAUGAAGCUCUUACAUCAGGUGUCACGAGUUUGGAAAACAGAUGGCUUGUCUAGUUGUUCUUAUAAAUUACUGUCUGUGGAACACAAACCUUUGUAUAUCAACAUCACGGU | 0.574
GUUGUGACCCAUUCAACAUCCAUAAGAAGCUGGCCAAAAAAAACCUGCACGUCAUUGACUUGGAUGAUGCCACUUUUCUGAGUGCAAAAUUCGGAAGGCAGCUGGUGCCUGGUUGGAAGC | 0.361
AUAUCUUGGUUUAGGGUAGAGGGGAGGGAGGGGCAGGACUGUGGAAUCUCUAAGGUGUAUCGGUAGACAAGUGGGCCUUUAUGUUAAAAACCUCUGGGGGCCUCUGUUUUGGGGGUGAAG | 0.976

Study 3 — technique: RNA Bind-n-Seq; molecule type: RNA; medium: in vitro; tested at: 365 nM; reference: no-protein control; direction: higher = stronger binding
Target: RNA binding protein fox-1 homolog 2, RRM domain, GST-SBP tag (RBFOX2, Homo sapiens, UniProt O43251-10, residues 100-194)
Setting: natural RNA segment, single round, ends assumed
All sequences stand within: GGGAGUUCUACAGUCCGACGAUC … UGGAAUUCUCGGGUGCCAA
Residues (chain): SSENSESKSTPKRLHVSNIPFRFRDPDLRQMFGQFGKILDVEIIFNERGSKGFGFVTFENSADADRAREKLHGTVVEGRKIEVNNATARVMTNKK
Oligonucleotide | RBNS enrichment (R)
UACCUGUGCAACCACCAGAUUCCAUUUCUACUUCUCUUCCCCAGAGGUCUCAGCAAUGAAUCGGGAAGACACGAAAGGUCUAAGACUAAAUAUCCAAAUUAUAAAUACUA | 0.314
GGGAGACAGAUGGCCCUAACUACUCAGUGACAGAGGCAGUUACUGUGAGAGACUUGUAGGAAUUUUUUUCUUCUCCUAGCGAAGUCAAAGCUCUCUCUGAAUGUACUGUG | 0.627
GCAUGUGCACCAGGUUGGUGUUCACCAGCUCAUGUCUUCCCCACAUCUCUUCUUGCCAGUAAGCAGCUUUGGUGGGCAGCAGCAGCUCAUGAAUGGCAAGCUGACAGCUU | 3.87
GUUCACCAGGUGCCUGUCAUCACCCCACUUGACUGACAUCUACCCUGGUGACUAUGGGUUCCUCUUGUUUGUAGGGAACGGUGGCUCCAGGUGGAGGCAUCAAUCUGUUG | 0.491
UUCCCUUAUUGCCUUAUUGUCCCUGGCCACAAACUGUUCAUCUCUUCUCUAAUGUGUAAGUGGAGCCUGAACUGCAGGGGCUCUUUAUAUUCCAAACAACCCAGGGUUAG | 0.935
CAACCAUCGAAAAUGGAUUCUUAGUACCAGACAAUCCCAGUAAUGAAGGUUUAGUUUCCUUGAAGGAAACUACAGAAAAGGAAAGAAGCAGAAUGAGAAAGGAAUGGUAC | 1.67
CCUCUGUGUAGGGCUGUUUUCCAGGAAUUAGGAAGAAAACCCAAAGAAAAUAUUGCACAAAGGUUUCCCUCAGGAAACCUAGUGCAGAUAGCCAUGGAAGCAUAGCCACU | 0.286
CCCUGACUCCCUCAUGGUGCCUCGGAGAGUGGGGAGCAUAUUGGGCUGGGGUAAGCACUAGACCCAAGUAGACUGGACACAAAGGGCUCGCCCAGGGCCCUGGCGCCACC | 0.519
GCAAAGUUUGUCUUGACAGUUGAAGGCCUCGCUUAGUUGUACUGGAUUCUCAGGGAGCCCUCUGUGGCCUUUUGCUUUGCGUGCUGUUUCCCUUGUACCAGAGGGCGGCA | 0.487
UGGAAUGGAAAGAAUGUGGGAUUUGGAGUCAGACAAGCCUGAGUCCAGUUCCCCGUUUAGAACUCAUUAGCUGUGUGACUCUGGGUGAGUCCCUUAACCCCUCUGAGCCC | 0.309
CCAACUGCACCCCUGUCGCCUGGAGGAGGGCCAGCUCGCUGCCCGAGCUCUGGCCUAGGGACCUUGCCGCUGACCAAGAGGGAGGACCAGUGCAGGGUCUGUGCACCUUC | 1.26
GCCGUAAGUUUCCAAGAUUCAAGAAGUGUAUCAACCCAGGCAAUAUCUCAGGAUAUGGAAGUUUCUGGGUUUAUUUACCCCUCAGUGCCCAGAGUUAAAGUUUCAGAAGA | 0.221

Study 4 — technique: competition protein-binding microarray; molecule type: double-stranded DNA, one strand shown; medium: in vitro; tested at: 2 µM; added: Cbf1 competitor, 0.05 µM; direction: higher = stronger binding; all sequences stand within: … GTCTTGATTCGCTTGACGCTGCTG
Target: Phosphate system positive regulatory protein PHO4, full length, GST-tagged (PHO4, Saccharomyces cerevisiae, UniProt P07270, residues 1-312)
Setting: whole 60-bp probe, lowest competitor level
Construct (chain): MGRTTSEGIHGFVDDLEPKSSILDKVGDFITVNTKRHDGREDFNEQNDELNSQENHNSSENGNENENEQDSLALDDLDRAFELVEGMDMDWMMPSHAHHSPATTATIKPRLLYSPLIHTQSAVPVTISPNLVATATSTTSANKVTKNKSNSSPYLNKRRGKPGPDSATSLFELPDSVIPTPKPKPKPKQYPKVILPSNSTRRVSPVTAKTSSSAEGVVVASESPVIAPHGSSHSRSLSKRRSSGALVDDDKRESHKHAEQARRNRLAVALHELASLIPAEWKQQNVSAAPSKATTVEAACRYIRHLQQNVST
Oligonucleotide | fluorescence intensity
GGGAATCCAGGCAGACACGTGCTACCGAGACTTTAA | 15100 a.u.
GTCTTGTCTCATTGCTAAGTGGGTGTCCCCACTTCA | 4400 a.u.
TCCAGAATATAATAATATCGTATGGACCATCTCGCT | 3320 a.u.
TGCGCAACAACTTGCTGTGTGGGTGTATGTCTAGAA | 5640 a.u.
AAAGCGGTAATTTGCCACGTGGGTGCAGATATCTAT | 20700 a.u.
GTAGCAAATGCACTGCATGTGTTTCTGTGGCGGGTA | 10600 a.u.
TCAAACCTGGCTCACCACGTGGGACATAAGCATATG | 18700 a.u.
GTCTTGTCTCATTGACAAGTGGGTGTCCCCACTTCA | 4300 a.u.
GGCGTTACTGATTTATACGTGGGTATCTACGATGAT | 6810 a.u.
AGTAGCGGCTGCCGTCACGCACCATGGGTACCATCT | 6410 a.u.
CAGGAACCCATAAGTCAGCTGAGCCTGTGTCTAACA | 3500 a.u.
TGAGCCTTCCCGTCGCGCGTGATGGGGAGATACAGA | 6710 a.u.
CCCTCCCTTCTCTGCTCCGTGATGGCCATTTCAACC | 4800 a.u.
AAAGCGGTAATTTGTCACAGAACTTCACATATCTAT | 3200 a.u.
GTTGAAACTGTCAACATCGTGTAGGACATTGGATAA | 9100 a.u.
TGAGTTGTCGGGCTCATCGTGCTTTATCAAGTGGTT | 9800 a.u.
CCCGGCCCCCCCAGCCACGTGAACCCCACAAAGTGC | 10400 a.u.
CGGGGTTAAGTTTTTCACGTGTAATGCTTGCAGCAG | 11400 a.u.
CGTCCTAGTGATTTTCACGTGGGTTCCATGAGGAAG | 14700 a.u.
GCTGGTGTCTCGTCGCACATGCTATTGTGTGTCATC | 10800 a.u.
AGAAACGGCATCTCTCACCTGATTGTTCTCAAGATT | 3110 a.u.
GTCTTGTCTCATTCCCACGTGTTTTTCCCCACTTCA | 18800 a.u.
CATAAGGACCCCCATATCGTGATGGTCATTGATGAC | 5850 a.u.
CATACCCAACCTTGTCACTGAACTTAAGATATTTGT | 3890 a.u.

A few entries again (study 3):
Oligonucleotide | RBNS enrichment (R)
GUUCACCAGGUGCCUGUCAUCACCCCACUUGACUGACAUCUACCCUGGUGACUAUGGGUUCCUCUUGUUUGUAGGGAACGGUGGCUCCAGGUGGAGGCAUCAAUCUGUUG | 0.491
GCCGUAAGUUUCCAAGAUUCAAGAAGUGUAUCAACCCAGGCAAUAUCUCAGGAUAUGGAAGUUUCUGGGUUUAUUUACCCCUCAGUGCCCAGAGUUAAAGUUUCAGAAGA | 0.221
CCAACUGCACCCCUGUCGCCUGGAGGAGGGCCAGCUCGCUGCCCGAGCUCUGGCCUAGGGACCUUGCCGCUGACCAAGAGGGAGGACCAGUGCAGGGUCUGUGCACCUUC | 1.26
UUCCCUUAUUGCCUUAUUGUCCCUGGCCACAAACUGUUCAUCUCUUCUCUAAUGUGUAAGUGGAGCCUGAACUGCAGGGGCUCUUUAUAUUCCAAACAACCCAGGGUUAG | 0.935
GGGAGACAGAUGGCCCUAACUACUCAGUGACAGAGGCAGUUACUGUGAGAGACUUGUAGGAAUUUUUUUCUUCUCCUAGCGAAGUCAAAGCUCUCUCUGAAUGUACUGUG | 0.627
CCUCUGUGUAGGGCUGUUUUCCAGGAAUUAGGAAGAAAACCCAAAGAAAAUAUUGCACAAAGGUUUCCCUCAGGAAACCUAGUGCAGAUAGCCAUGGAAGCAUAGCCACU | 0.286
CAACCAUCGAAAAUGGAUUCUUAGUACCAGACAAUCCCAGUAAUGAAGGUUUAGUUUCCUUGAAGGAAACUACAGAAAAGGAAAGAAGCAGAAUGAGAAAGGAAUGGUAC | 1.67
UACCUGUGCAACCACCAGAUUCCAUUUCUACUUCUCUUCCCCAGAGGUCUCAGCAAUGAAUCGGGAAGACACGAAAGGUCUAAGACUAAAUAUCCAAAUUAUAAAUACUA | 0.314
